Measurements collected from several papers.
Numbers after ± are the reported error.

SMILES	tested on	test	system	setting	scale	measurement	value
CCN1CCN(c2cc(N3CCN(CC)CC3)nc(NCCNc3ccnc4cc(Cl)ccc34)n2)CC1	COS-7	–	–	20 µM, 24 h, 0.1% DMSO, unit not given	baseline: vehicle control	confluence	0.4 ± 0.06
Cc1cc(Nc2ccc(NC(=O)c3ccc(Nc4ccnc5ccccc45)cc3)cc2)nc(N)n1	OCI-Ly1	–	–	1 µM, 120 h	–	viability	8.61%
C[C@H]1C[C@H]2CSC(N)=N[C@@]2(c2nc(NC(=O)c3ccc(OC(F)F)cn3)cs2)CO1	–	refers to: total Aβ	healthy adults, plasma	400 mg single dose, 48 h post-dose	baseline: placebo	percent change from baseline	-67.4%
O=C(O)CNC(=O)Cc1ccccc1	–	–	ventricular cardiomyocytes, C57BL/6 mouse	dose not given, 0.216 s	–	sarcomere length	1.62 µm
C#CCCC(=O)SCCNC(=O)CCNC(=O)[C@H](O)C(C)(C)COP(=O)(O)OP(=O)(O)OC[C@H]1O[C@@H](n2cnc3c(N)ncnc32)[C@H](O)[C@@H]1OP(=O)(O)O	OCI-Ly1	–	–	1 µM, 120 h	–	viability	99.2%
Cn1cc(-c2ccc(-c3cncc(Cl)c3N3CCC4(CCNC4=O)CC3)cc2)cn1	COLO 205	gene expression, microarray, refers to: LSS mRNA	–	concentration not given, 6 h	baseline: untreated cells	log2 fold change	-1.14
Oc1ccccc1-c1n[nH]cc1-c1ccnc2ccccc12	STE11 (Candida albicans)	kinase binding, MIB/MS competition	Candida albicans lysate	1 µM	baseline: DMSO	log2 fold change	0.12
N=C1NC(=O)/C(=C/c2ccc(O)cc2)S1	OCI-Ly1	–	–	0.5 µM, 120 h	–	viability	166%
CC(C)NCC(O)c1ccc(O)c(O)c1 (stereo not shown)	–	–	ventricular cardiomyocytes, C57BL/6 mouse	dose not given, 0.708 s	–	sarcomere length	1.72 µm
NCCCOc1cc(NC(=O)c2cccc(C(=O)Nc3cc(OCCCN)c4ccccc4n3)n2)nc2ccccc12	c-kit2 G-quadruplex DNA	FRET melting	–	1 µM, pH 7.4, added: 60 mM potassium	–	ΔTm	9.7 ± 0.5 K
CC(=O)c1c(C)cc2cc(O)cc(O[C@@H]3O[C@H](CO)[C@@H](O)[C@H](O)[C@H]3O)c2c1O	HepaRG co-cultured with HK-2	MTT	–	133.33 µM, 24 h	baseline: untreated control	cell viability	85.5 ± 12.7%
CCN(CC)Cc1ccc2cc(COC(=O)Nc3ccc(C(=O)NO)cc3)ccc2c1	OCI-Ly1	–	–	0.1 µM, 120 h	–	viability	62.2%
COc1c(O)c(C)cc2c1C(=O)c1c(O)cccc1C2=O	HepaRG co-cultured with HK-2	MTT	–	266.67 µM, 24 h	baseline: untreated control	cell viability	35.8 ± 16.4%
NC(=O)c1cnc2[nH]ccc2c1N[C@@H]1[C@@H]2CC3C[C@H]1C[C@@](O)(C3)C2	–	flow cytometry, refers to: CD8+ effector memory T cells	Japanese healthy subjects, peripheral blood	oral, 30 mg twice daily, day 7	–	change from baseline	0.22%
NCCOc1cc(NC(=O)c2cc(OCc3ccc(F)cc3)cc(C(=O)Nc3cc(OCCN)c4ccccc4n3)n2)nc2ccccc12	double-stranded DNA	FRET melting	–	1 µM, pH 7.4, 60 mM potassium, added: oligonucleotide 200 nM	–	delta Tm	0.3 ± 0.1 K
O=C(Nc1cnc2ccccc2c1)c1cc2[nH]ccc2cc1Cl	COS-7	–	–	10 µM, 24 h, 0.1% DMSO, unit not given	baseline: vehicle control	confluence	0.83 ± 0.14
CC(NC(=O)c1ccccc1/N=C/c1c(O)ccc2ccccc12)c1ccccc1 (stereo not shown)	OCI-Ly1	–	–	0.5 µM, 120 h	–	viability	88.6%
NCCOc1cc(NC(=O)c2cccc(C(=O)Nc3cc(OCCN)c4ccccc4n3)n2)nc2ccccc12	human telomeric G-quadruplex DNA	FRET melting	–	1 µM, pH 7.4, added: 60 mM potassium	–	ΔTm	28.4 ± 0.8 K
c1coc(-c2n[nH]cc2-c2ccnc3ccccc23)c1	YPK1 (Candida albicans)	kinase binding, MIB/MS competition	Candida albicans lysate	10 µM	baseline: DMSO	log2 fold change	-0.06

For quick reference, copied from above:
SMILES	tested on	test	system	setting	scale	measurement	value
N=C1NC(=O)/C(=C/c2ccc(O)cc2)S1	OCI-Ly1	–	–	0.5 µM, 120 h	–	viability	166%
CC(C)NCC(O)c1ccc(O)c(O)c1 (stereo not shown)	–	–	ventricular cardiomyocytes, C57BL/6 mouse	dose not given, 0.708 s	–	sarcomere length	1.72 µm
NCCCOc1cc(NC(=O)c2cccc(C(=O)Nc3cc(OCCCN)c4ccccc4n3)n2)nc2ccccc12	c-kit2 G-quadruplex DNA	FRET melting	–	1 µM, pH 7.4, added: 60 mM potassium	–	ΔTm	9.7 ± 0.5 K
